Published values from different studies.
Each line is one published result; not all experiments were run side by side. Several values in a cell are separate wells, animals, samples, runs or records.
Target: Mitogen-activated protein kinase 9 (MAPK9, Homo sapiens, UniProt P45984)

Cc1ccc(-c2c(/C=C(\C#N)C(=O)NC(C)C)n(CCCO)c3ncnc(N)c23)cc1  remaining binding (cell-free assay, competition with immobilised ligand; 1 µM): 96%
COc1cc(Nc2nccc(-c3cnn4nc(OC)ccc34)n2)cc(C(F)(F)F)c1  remaining binding (binding, competition with immobilised ligand; 1 µM): 89%
C=CC(=O)Nc1cccc(-c2cnc3[nH]cc(C(=O)NC(C)(C)C)c3n2)c1  inhibition (kinase activity; 0.1 µM): -13% and 1%
Cc1cccc(O[C@H]2CCC[C@@H](C(C)CNCc3ccncc3)C2)c1 (relative stereo)  inhibition (kinase activity, kinome panel screening; 10 µM): -1%
C=CC(=O)N1CCc2ccc(-n3c(=O)ccc4cnc5ccc(-c6cnn(C)c6)cc5c43)cc21  remaining binding (KINOMEscan; 1 µM; relative to: DMSO control): 79%
COC(=O)[C@@]1(C)C=C(C(=O)Nc2cccc(C(=O)Nc3ccc(Nc4nccc(-c5cccnc5)n4)c(C)c3)c2)C(=O)CC1  remaining activity (enzyme activity, inhibitor; 0.1829 µM, unit not given; relative to: vehicle): 0.393
CNC1C[S+]2CC[S+]3CC[S+](C1)[Ru-4]321([N]=C=S)[n]2c3ccc(OC)cc3c3c4c(c5cc(F)c[n+]1c5c32)C(=O)NC4=O (stereo not drawn)  remaining binding (KinomeScan; 0.1 µM; relative to: untreated): 96%
Cc1[nH]nc2c1N=C(c1ccccc1Cl)c1cnc(N3CCOCC3)cc1N2  inhibition (enzyme activity, inhibitor; 0.5 µM): 8.7%
CN1CCN(Cc2ccc(NC(=O)c3cccc(C#Cc4cnc(N)c5ncccc45)c3)cc2C(F)(F)F)CC1  remaining binding (cell-free assay, competition with immobilised ligand; 0.5 µM): 4.4%
CNC(=O)C[C@H](Cc1ccc(C#N)cc1)NC(=O)c1cc(-c2ccc(CN[C@H](C)c3ccc(C)cc3)o2)ccc1Cl  activity vs control (enzyme activity, inhibitor; 1 µM): 94%
C#CCOC(=O)[C@]1(C)C=C(C(=O)Nc2cccc(C(=O)Nc3ccc(C)c(Nc4nccc(-c5cccnc5)n4)c3)c2)C(=O)CC1  remaining activity (enzyme activity, inhibitor; 0.02032 µM, unit not given; relative to: vehicle): 0.818
Cc1cnc2nc1Nc1cccc(c1)COC/C=C/COCc1cc(ccc1OCCN1CCOCC1)N2  remaining signal (cell-free assay; 0.1 µM): 60%
CCn1cc(C(=O)O)c(=O)c2c(N)c(F)c(NC3CCCCC3)cc21  inhibition (kinase activity; 0.1 µM, with: ATP at Km): 8.4%
C=C1CCCCCCCCCC(CO)C1=O (stereo not drawn)  remaining binding (cell-free assay, competition with immobilised ligand; 10 µM): 100%
NC(=O)[C@@H](O)C[C@H]1CCc2sc3ncnc(O[C@H]4CC[C@H](N5CCOCC5)CC4)c3c21  inhibition (enzyme activity, inhibitor; 10 µM): -3%
COc1ccc(NC(=O)Nc2ccc3c(c2)C(=O)N(C(C)CO)CC(C)C(CN(C)Cc2ccc4c(c2)OCO4)O3)cc1 (stereo not drawn)  remaining binding (binding, competition with immobilised ligand; 10 µM): 89%
CNC(=O)C1CCN(c2cc(C)c(F)cc2NC(=O)c2ccc(-c3cc(O)ccc3C)c(C)c2)CC1  remaining binding (binding, competition with immobilised ligand; 1 µM): 84%
O=C(Cc1ccc(OCc2ccccc2)cc1)NC1(C(=O)O)CCN(C(=O)c2ccc(-c3cccc(Cl)c3)cc2)CC1  activity vs control (enzyme activity, inhibitor; 10 µM): 94%
Cc1cccc(-c2ccc3nc(NC(=O)C4CCCCC4)nn3c2)c1  remaining activity (enzyme activity, Dundee kinase panel; 10 µM): 82%
Cc1cc(NC(=O)c2cccc(N)c2)ccc1Nc1nccc(-c2cccnc2)n1  remaining activity (enzyme activity, inhibitor; 0.5487 µM, unit not given; relative to: vehicle): 0.765
COc1c(Cl)cccc1Nc1c(-c2ccncc2C#C[C@@]2(C)CCCN2C(=O)/C=C/CN(C)C)[nH]c2c1C(=O)NCC2  remaining binding (cell-free assay, competition with immobilised ligand; 3 µM): 0%
